Measurements gathered from unrelated publications.
Every numbered part comes from another study and shows a few of its results, in no order.

Sample 1 — technique: competition protein-binding microarray; form: double-stranded DNA, one strand shown; sample: in vitro; concentration: 2 µM; with: Cbf1 competitor, 0.05 µM; reading: higher = stronger binding
Target: Phosphate system positive regulatory protein PHO4, full length, GST-tagged (PHO4, Saccharomyces cerevisiae, UniProt P07270, residues 1-312)
Setting: whole 60-bp probe, lowest competitor level
Construct (chain): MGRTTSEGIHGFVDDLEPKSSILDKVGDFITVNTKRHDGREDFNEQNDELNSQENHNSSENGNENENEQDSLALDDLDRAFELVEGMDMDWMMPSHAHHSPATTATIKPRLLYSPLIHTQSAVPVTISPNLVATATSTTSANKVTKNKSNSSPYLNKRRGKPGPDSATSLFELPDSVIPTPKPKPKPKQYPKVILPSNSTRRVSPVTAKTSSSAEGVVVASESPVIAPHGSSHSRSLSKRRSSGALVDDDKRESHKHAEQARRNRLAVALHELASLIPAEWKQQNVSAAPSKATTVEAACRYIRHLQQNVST
With `CATACCCAACCTTGTCACGGCACTTAAGATATTTGTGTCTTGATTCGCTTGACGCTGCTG` the fluorescence intensity was 4290 a.u.
With `GTCTTGTCTCATTGTCACCTCACTTTCCCCACTTCAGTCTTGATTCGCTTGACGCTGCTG` the fluorescence intensity was 4940 a.u.
For `CAGTGGAAACAAGAAAACGTGCTAAATCCAGAACTCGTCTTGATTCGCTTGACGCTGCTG`, the fluorescence intensity was 14300 a.u.
With `CTTTCCCGATCTTGTGTAGTGGGTGTAGCACATTTGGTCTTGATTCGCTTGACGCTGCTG` the fluorescence intensity was 5370 a.u.
With `AATTTGGCGCCGAGTCACGATATACTTGTACAGTGAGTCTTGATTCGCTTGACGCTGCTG` the fluorescence intensity was 4290 a.u.
`TTCCCATTGACGTACAAGGTGATGCTGATCGTTCGGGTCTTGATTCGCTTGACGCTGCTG` has a fluorescence intensity of 4730 a.u.
With `CTTGGTATCAATTTCTTCGTGCTTTGCTTGGTTGAAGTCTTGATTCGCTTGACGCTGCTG` the fluorescence intensity was 4480 a.u.
`CTTGGTTATCTTTGACATGTGTTTCGTTCAGGCGAGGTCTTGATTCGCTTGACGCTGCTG` gave a fluorescence intensity of 10500 a.u.
With `TAGGAAGAAGAACTCGTCGTGCAAATCGGATAGTTGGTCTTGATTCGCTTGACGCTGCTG` the fluorescence intensity was 5360 a.u.
For `TTACTTTAACCTTTAGTAAATTCAGCGTCTTGACCAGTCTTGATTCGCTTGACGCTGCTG`, the fluorescence intensity was 2500 a.u.
The fluorescence intensity of `AAAGCGGTAATTTTTCACGTGCAATCAAATATCTATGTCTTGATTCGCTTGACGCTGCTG` is reported as 13100 a.u.
For `ACCTCTTCCATGTCCCACGTAATGGCAATTGGCATAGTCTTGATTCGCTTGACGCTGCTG`, the fluorescence intensity was 6510 a.u.
For `CTTCTGTAAATTTGGGAGGTGGGTGGACGCGCCCCGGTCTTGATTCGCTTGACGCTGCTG`, the fluorescence intensity was 4090 a.u.
`CAAGAAATAAAAGAAAACGTGACTCGAGGCCTCCATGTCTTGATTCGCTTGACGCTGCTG` gave a fluorescence intensity of 12800 a.u.
The fluorescence intensity of `TTCTTCTCCCAATCGCACGGCGAAGTCGCTCGACAAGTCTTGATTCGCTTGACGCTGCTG` is reported as 4200 a.u.
For `CGGGGTTAAGTTTGGGGCGTGGGTGGCTTGCAGCAGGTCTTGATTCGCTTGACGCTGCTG`, the fluorescence intensity was 9340 a.u.

Sample 2 — technique: protein binding microarray; form: double-stranded DNA, one strand shown; sample: in vitro; concentration: not given; reference: not given; reading: higher = stronger binding
Target: Histone acetyltransferase KAT6A, winged helix 1, GST fusion (KAT6A, Homo sapiens, UniProt Q92794, residues 1-85)
Setting: 8-mer, flanks averaged, mean of 2 arrays, mostly near background
Construct (chain): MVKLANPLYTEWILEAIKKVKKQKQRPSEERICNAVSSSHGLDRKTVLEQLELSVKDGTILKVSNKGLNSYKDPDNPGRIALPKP
The E-score of `AGGTCCAG` is reported as -0.164.
For `ATAGACGG`, the E-score was 0.0769.
`CCGCACTC` gave an E-score of 0.235.
`AGATAAAA` gave an E-score of -0.0528.
`TATTTACA` gave an E-score of -0.123.
`TGGTTTAA` gave an E-score of -0.0955.
The E-score of `CACTGCAA` is reported as -0.127.
`AGCCTCTC` has an E-score of -0.231.
With `TAAATTCA` the E-score was -0.17.
With `GCTACGGA` the E-score was 0.234.
`CAGAATCG` has an E-score of 0.0403.
With `ATTGATTA` the E-score was 0.000375.
The E-score of `AGCTATGG` is reported as -0.127.
For `AAGGTCGC`, the E-score was 0.169.
The E-score of `ATTTCTGA` is reported as -0.19.
With `AAACTTAA` the E-score was -0.056.
`AGATCTGC` gave an E-score of -0.282.
For `CGATAGGC`, the E-score was 0.11.
`AACCCCAA` has an E-score of -0.202.
The E-score of `AAAAGCCT` is reported as -0.198.
With `AAACAAAA` the E-score was -0.104.
The E-score of `CCCACAAA` is reported as -0.204.

Sample 3 — technique: RNA Bind-n-Seq; form: RNA; sample: in vitro; concentration: 200 nM; setting: whole 134-nt RNA, ends assumed; with: 150 mM KCl; reference: input library; reading: higher = stronger binding
Target: Fragile X messenger ribonucleoprotein 1, C-terminal low-complexity region (Fmr1, Mus musculus, UniProt P35922)
`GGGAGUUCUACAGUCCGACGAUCCCUCAAGUCCUGUGCUACACAUCGUAUGUACCGAAUCGGGCGGGGCGGCGGGGAAAGUAUUAUGUUACGCCGUUCGGAUCUGCACUUCCAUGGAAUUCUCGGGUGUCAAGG` has a log2 enrichment of 0.99.
For `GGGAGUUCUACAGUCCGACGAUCCUCAAGUCCUGUGCUACACAUCGUAUGUACCGAAUCGGGUUUGGGAGGGAGGGAAAGUAUUAUGUUACGCCGUUCGGAUCUGCACUUCCAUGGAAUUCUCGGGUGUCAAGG`, the log2 enrichment was 1.37.
`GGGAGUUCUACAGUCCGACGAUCCUCAAGUCCUGUGCUACACAUCGUAUGUACCGAAUCGGGGCCGGCCGGGCCGGGAAAGUAUUAUGUUACGCCGUUCGGAUCUGCACUUCCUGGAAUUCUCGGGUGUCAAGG` has a log2 enrichment of -0.203.
For `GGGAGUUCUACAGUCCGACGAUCGCAGGAAGUAAAAACAAAUGGAAAUGCUUCGGAUAGUGGCAGGGGUGGGGGUUGCUAAGGAAAGGGUAAAAUGGGAGUGGGUAAAGAGUUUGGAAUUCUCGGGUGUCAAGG`, the log2 enrichment was 0.232.
With `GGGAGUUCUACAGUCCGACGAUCGCAGGAAGUAAAAACAAAUGGAAAUGCUUCGGAUAGUGGCAGGGGUGGGGGUUGCUAAGGAAAGGGUGGGAUGGGAGUGGAAAAAGAGUUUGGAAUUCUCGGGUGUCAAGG` the log2 enrichment was 0.291.
`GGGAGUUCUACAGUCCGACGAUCUGGCCCUGGUGGCAUGCGGGGAGGAAGAGGUGGCCUCAUGGAUCGUGGUGGUCCCGGUGGAAUGUUCAAAGGUGGCCGUGGUGGAGACAGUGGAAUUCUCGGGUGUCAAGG` gave a log2 enrichment of 0.19.
For `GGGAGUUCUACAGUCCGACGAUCUGGGAGGUGGAUUUUGUAUAUUUUUUUAGCUCAUUUCCAGGGGUGGGAAUUUUUUUUUAAUAUGUGUCAUGAAUAAAGUUGUUUUUGAAAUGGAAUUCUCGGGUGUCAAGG`, the log2 enrichment was 0.358.
`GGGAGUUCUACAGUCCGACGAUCGUCCUGUGCUACACAUCGUAUGUACCGAAUCGGUUUUUGGGUUUUUGGGUUUUUGGGGAAAGUAUUAUGUUACGCCGUUCGGAUCUGCACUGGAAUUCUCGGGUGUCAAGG` has a log2 enrichment of -0.0453.
`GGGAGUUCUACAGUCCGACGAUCUCCUGUGCUACACAUCGUAUGUACCGAAUCGGGGAAAAAGGGGUUUUUGGGGAAAGGGGAAAGUAUUAUGUUACGCCGUUCGGAUCUGCAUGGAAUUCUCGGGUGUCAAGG` gave a log2 enrichment of 0.799.
With `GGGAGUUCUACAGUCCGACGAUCCAAGUCCUGUGCUACACAUCGUAUGUACCGAAUCGGAAAGGGGAAAGGGAAAGGGGAAAGUAUUAUGUUACGCCGUUCGGAUCUGCACUUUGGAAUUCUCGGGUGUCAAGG` the log2 enrichment was 0.296.

Sample 4 — technique: protein-binding microarray; form: double-stranded DNA, one strand shown; sample: in vitro; concentration: 250 nM; setting: 60-bp whole probe; with: salmon DNA 0.4 mg/ml; reference: random background probes; reading: higher = stronger binding; constant ends, left off below: GCCTAGCAC … GTCTTGATTCGCTTGACGCTGCTG
Target: Interferon regulatory factor 5, full length, phosphomimetic (IRF5, Homo sapiens, UniProt Q13568-2, residues 1-514, K96S/S451D/S453D/S456D/S462D)
With `GACCTTTTTAAGATCTGTGCGTGCTAG` the log fluorescence was -0.143 z-score.
With `GGCCCTGTCCTTTTCTTTACGTGCTAG` the log fluorescence was -0.231 z-score.
With `TTAGGTATCGACGCTGGGTTAGTGCTA` the log fluorescence was 1.69 z-score.
For `GACGATGTCGGGTTTCGAGACGTGCTA`, the log fluorescence was 1.49 z-score.
For `GACGGTTTCTGTCTCGGGACGTGCTAG`, the log fluorescence was 2.93 z-score.
`TCAAGTATGTTCCTTATTACTGTGCTA` has a log fluorescence of 0.612 z-score.
For `TCAACCCTCCCTCTGTAAGTGTGCTAG`, the log fluorescence was -0.193 z-score.
The log fluorescence of `GACGATATAGGGACTGGAGACGTGCTA` is reported as -0.199 z-score.
`GACGGTTTCCTTTCCGTGACGTGCTAG` gave a log fluorescence of 1.21 z-score.
`TACTGTGTGCATCTATCTTAGTGCTAG` gave a log fluorescence of 0.263 z-score.
`GACGGACTGGGTTTCTGGACGTGCTAG` has a log fluorescence of 0.129 z-score.
For `TCAGACTTGATTTTGGTACTGTGCTAG`, the log fluorescence was 0.318 z-score.
The log fluorescence of `TTAGGTTCCCTTTGCCTTTAGTGCTAG` is reported as 0.106 z-score.
`GACGATTTTAGACTGGAGACGTGCTAG` has a log fluorescence of -0.0621 z-score.
The log fluorescence of `TTAGATCTCAGACTGGATTCGTGCTAG` is reported as -0.258 z-score.
For `TCATTAATCACATATACAACTGTGCTA`, the log fluorescence was 1.06 z-score.
For `TTAGTTTTCGGTCTCGGTTAGTGCTAG`, the log fluorescence was 9.01 z-score.
`GACGGTACCGACACTGGGGACGTGCTA` has a log fluorescence of -0.286 z-score.
For `GACGATCTCAGGCTGGAGACGTGCTAG`, the log fluorescence was -0.55 z-score.
With `TTAGAACTGGGGTATCGCTTAGTGCTA` the log fluorescence was 0.565 z-score.
For `TTAGGACTGGACTTTCGGGTAGTGCTA`, the log fluorescence was 6.91 z-score.
With `GAAGGTTTCGACACTGGGGACGTGCTA` the log fluorescence was 4.12 z-score.
`TTAGGACAGGGGTATCGGTTAGTGCTA` gave a log fluorescence of 2.56 z-score.
`GACGATTTCAGTCACGAGACGTGCTAG` has a log fluorescence of 1.22 z-score.
`AGTAATGACCTTCTCAGGAGGTGCTAG` has a log fluorescence of -0.235 z-score.

Excerpt of the above (sample 3):
For `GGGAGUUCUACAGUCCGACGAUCGCAGGAAGUAAAAACAAAUGGAAAUGCUUCGGAUAGUGGCAGGGGUGGGGGUUGCUAAGGAAAGGGUAAAAUGGGAGUGGGUAAAGAGUUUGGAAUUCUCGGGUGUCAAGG`, the log2 enrichment was 0.232.
With `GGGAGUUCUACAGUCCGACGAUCGCAGGAAGUAAAAACAAAUGGAAAUGCUUCGGAUAGUGGCAGGGGUGGGGGUUGCUAAGGAAAGGGUGGGAUGGGAGUGGAAAAAGAGUUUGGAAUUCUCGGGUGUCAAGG` the log2 enrichment was 0.291.
`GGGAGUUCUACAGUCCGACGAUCUGGCCCUGGUGGCAUGCGGGGAGGAAGAGGUGGCCUCAUGGAUCGUGGUGGUCCCGGUGGAAUGUUCAAAGGUGGCCGUGGUGGAGACAGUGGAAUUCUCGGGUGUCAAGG` gave a log2 enrichment of 0.19.
For `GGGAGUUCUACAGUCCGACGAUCUGGGAGGUGGAUUUUGUAUAUUUUUUUAGCUCAUUUCCAGGGGUGGGAAUUUUUUUUUAAUAUGUGUCAUGAAUAAAGUUGUUUUUGAAAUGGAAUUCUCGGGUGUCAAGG`, the log2 enrichment was 0.358.
